Results of several laboratories.
Each numbered part is a random draw from the data of one study; scales do not carry over between parts.

Set 1
Target: Histone acetyltransferase KAT6A, winged helix 1, GST fusion (KAT6A, Homo sapiens, UniProt Q92794, residues 1-85)
Technique: protein binding microarray
Form: double-stranded DNA, one strand shown
Matrix: in vitro
Concentration: not given
Notes: 8-mer, flanks averaged, mean of 2 arrays, mostly near background
Relative to: not given
Reading: higher = stronger binding
Target sequence (chain): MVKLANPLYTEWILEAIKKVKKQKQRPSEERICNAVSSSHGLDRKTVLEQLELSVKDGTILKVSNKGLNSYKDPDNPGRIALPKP
`GCCGGTGA` gave an E-score of 0.207.
For `GAACTAAA`, the E-score was -0.0877.
For `GATCATGC`, the E-score was -0.127.
`GAGCTGAA` gave an E-score of -0.267.
The E-score of `CAGCCTTC` is reported as -0.0468.
`CTATTGAG` has an E-score of -0.151.
`CCCACATC` gave an E-score of -0.212.
`ACCGAGTG` has an E-score of -0.000635.
For `GGATAGCA`, the E-score was -0.0036.
`CACCGTAG` gave an E-score of 0.291.
The E-score of `GGGCGCCC` is reported as 0.349.
`ACGCTGGG` has an E-score of 0.06.
With `GCATACCC` the E-score was 0.0135.
For `GAGTCAAA`, the E-score was -0.149.

Set 2
Target: RNA binding protein fox-1 homolog 2, RRM domain, GST-SBP tag (RBFOX2, Homo sapiens, UniProt O43251-10, residues 100-194)
Technique: RNA Bind-n-Seq
Form: RNA
Matrix: in vitro
Concentration: 365 nM
Notes: natural RNA segment, single round, ends assumed
Relative to: no-protein control
Reading: higher = stronger binding
Construct (chain): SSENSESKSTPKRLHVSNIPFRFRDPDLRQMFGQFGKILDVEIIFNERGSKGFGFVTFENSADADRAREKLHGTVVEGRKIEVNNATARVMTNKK
Under “RBNS enrichment (R)”, `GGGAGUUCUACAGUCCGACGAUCCAUUUCUCUUCCCUGUGGCACUUGACAUUUUAAUUGUCUUAAAGUUUUUGAAGUACAUCUUCUGGCCCCUUGAGUACUGCCAGAGGCAAAAGAUGUUUGUUUCUUAUUCAUGGAAUUCUCGGGUGCCAA` is recorded as 0.526.
`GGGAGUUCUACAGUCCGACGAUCAAUUUAAAUGAUUACAGAGUGCUCCUGCCCAAGGAUCUCAUAGCCUGGAGUGAGGGUCAGAACUGAUUUGUUCUGUCUAUGUUUCAGCACUGGUGUGUGUUCUCUAUAAGUGGAAUUCUCGGGUGCCAA` — result for “RBNS enrichment (R)”: 0.503.
Under “RBNS enrichment (R)”, `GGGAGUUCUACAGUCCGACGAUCUGCAGGUCAAGUGUAGGGUUGUCAGAGAACAUGGCGCUCUUGGGUGCACCUGUUUGUUCUGCUAGGUUUAGGUUGAGCUCUGGAGUUGUUUGAAGUCUGCGAUGAAAAAUUGGAAUUCUCGGGUGCCAA` is recorded as 1.82.
`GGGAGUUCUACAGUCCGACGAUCCCUGGGAGACAAGAGCAUUACCCAGCUUGGCUUUCACGGGGGAGGGUUGUAUUCAGUAAAAAAGAAUAGUAAAUAUAAGGUCACUGAGAUUCUAAGUAAGAUAGUAAAUCUGGAAUUCUCGGGUGCCAA` — result for “RBNS enrichment (R)”: 2.96.
`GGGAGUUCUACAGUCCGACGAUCUGCAGCUCAAAACAGUGCCUCCUGCCUCUUUAGAGCGGGGCUGCUCGGCAGCAGUGACUGCAGCCCCAGCUUGCUUAAGCAGUGUAACAGCAGGGAAGCGGGAGGAGCUGUGGAAUUCUCGGGUGCCAA`: “RBNS enrichment (R)” 0.332.
`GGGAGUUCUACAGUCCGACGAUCCAGCUGUUGCAGGCAGUGUCUUAAGGAGACUGGUAGGAGGAGGCAUGGAAACCCAAAGGCCGUGUGUGUUUAGAAGCCUAACUGUCACAUCAAGCAUCAUCGUCCCCAUGUGGAAUUCUCGGGUGCCAA` — result for “RBNS enrichment (R)”: 1.65.
For `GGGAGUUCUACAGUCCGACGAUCGCCUGAGACACAUGGAGAGUUGGUCAGGCUGCUGCUGGGAGAAAUGGACGCCCACUGGGCCUCAACUUGAUCUUCUACCCCGUGCCUGUGACUCAGACUGGGAAAUACUGUGGAAUUCUCGGGUGCCAA`, “RBNS enrichment (R)” read 0.397.

Set 3
Target: Ras GTPase-activating protein-binding protein 1, C-terminal RGG region (G3BP1, Homo sapiens, UniProt Q13283)
Sequence of UniProt Q13283 (whole entry, looked up): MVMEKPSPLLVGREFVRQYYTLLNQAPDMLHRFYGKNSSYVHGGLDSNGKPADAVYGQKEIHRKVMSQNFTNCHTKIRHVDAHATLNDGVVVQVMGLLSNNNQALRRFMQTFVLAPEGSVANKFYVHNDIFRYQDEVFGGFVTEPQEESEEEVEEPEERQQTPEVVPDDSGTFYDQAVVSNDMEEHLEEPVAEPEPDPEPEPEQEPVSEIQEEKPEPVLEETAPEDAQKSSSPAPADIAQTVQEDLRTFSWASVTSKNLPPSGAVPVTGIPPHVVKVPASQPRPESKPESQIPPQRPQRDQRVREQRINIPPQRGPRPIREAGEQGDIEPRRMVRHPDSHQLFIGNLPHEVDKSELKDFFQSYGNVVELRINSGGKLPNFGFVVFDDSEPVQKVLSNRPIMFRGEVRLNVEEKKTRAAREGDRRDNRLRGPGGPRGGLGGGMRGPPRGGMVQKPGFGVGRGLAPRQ
Technique: RNA Bind-n-Seq
Form: RNA
Matrix: in vitro
Concentration: 1 µM
Notes: whole 134-nt RNA, ends assumed
With: 150 mM KCl
Relative to: input library
Reading: higher = stronger binding
`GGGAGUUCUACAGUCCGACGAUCUCCUGUGCUACACAUCGUAUGUACCGAAUCGGGGAAAAAAGGAAAAAAGGGAAAAAAGGGAAAGUAUUAUGUUACGCCGUUCGGAUCUGCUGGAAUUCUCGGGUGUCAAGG` gave a log2 enrichment of -1.17.
With `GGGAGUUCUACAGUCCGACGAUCAAGUCCUGUGCUACACAUCGUAUGUACCGAAUCGGGUGGGAAAAAAAGGGAAAGGGAAAGUAUUAUGUUACGCCGUUCGGAUCUGCACUUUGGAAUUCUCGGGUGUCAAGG` the log2 enrichment was 0.503.
`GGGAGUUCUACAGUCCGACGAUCCAAGUCCUGUGCUACACAUCGUAUGUACCGAAUCGGGCCCCGGCCCCGGCCCCGGGAAAGUAUUAUGUUACGCCGUUCGGAUCUGCACUUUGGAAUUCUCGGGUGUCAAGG` gave a log2 enrichment of -2.18.
`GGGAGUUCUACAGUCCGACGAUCAGUCCUGUGCUACACAUCGUAUGUACCGAAUCGGCCCCCGGGCCCCCGGCCCCCGGGGAAAGUAUUAUGUUACGCCGUUCGGAUCUGCACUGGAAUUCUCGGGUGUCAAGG` gave a log2 enrichment of -1.45.
The log2 enrichment of `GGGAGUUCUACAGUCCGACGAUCCUGUGCUACACAUCGUAUGUACCGAAUCGGGGUUUUUUUGGGUUUUUUUGGGUUUUUUUGGAAAGUAUUAUGUUACGCCGUUCGGAUCUGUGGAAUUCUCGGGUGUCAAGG` is reported as -1.17.
For `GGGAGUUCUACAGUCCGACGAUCCACAGACAACACGCACCCACACAGACACAGAGGGAAGGGGUUGGGAUGGUGACAGGGUGCACAGCAGGGCGGGGUAGGACCCCAGCCCCUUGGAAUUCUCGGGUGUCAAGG`, the log2 enrichment was -0.641.
`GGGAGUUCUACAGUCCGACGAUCCCUGUGCUACACAUCGUAUGUACCGAAUCGGGGUUUUUGGGGAAAGGGGAAAAAAAGGGGAAAGUAUUAUGUUACGCCGUUCGGAUCUGCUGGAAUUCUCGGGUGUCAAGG` gave a log2 enrichment of 0.165.
For `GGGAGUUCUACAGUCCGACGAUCAUAUGAGUAAAAUCUGUCCCUUUUUCCCCCUUUGAAUGAGGUCUUCCAUGUUUGAGGGAAAGUCUUGCACUAUUGCAUAUAUUUUGGGGAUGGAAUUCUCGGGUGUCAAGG`, the log2 enrichment was -0.995.

Other studies, line by line
With `PhoQ, residues 284 288 289 292 302 303 SIHLQL` the fold induction was 23.6 (PhoP, residues 12 14 15 18 19 TQAIL (Escherichia coli, UniProt P23836); Sort-seq, item: YFP reporter; E. coli; PhoQ-PhoP variant library, with: 10 µM Mg2+; relative to: high Mg2+ state, higher = stronger signaling).

Repeated from above (set 1):
For `GGATAGCA`, the E-score was -0.0036.
`CCCACATC` gave an E-score of -0.212.
The E-score of `GGGCGCCC` is reported as 0.349.
For `GATCATGC`, the E-score was -0.127.
`CACCGTAG` gave an E-score of 0.291.
